Assay results of several laboratories.
Each numbered part is a random draw from the data of one study; scales do not carry over between parts. Substitutions count along the parent as printed.

Sample 1
Target: CCNB3, cyclin fold, Cln2 fusion (human)
Technique: yeast growth competition, sequencing
Sample: yeast
Setting: weak parent motif
Reference: not given
Reading: higher = stronger binding
Endpoint: normalised enrichment score
Starting sequence: INSM1 docking peptide (human); PKAIRKLHFEDEV
K2G: 0.379
D11E: 0.284
A3Y: 0.174
K6H: 0.315
K6V: 0.493
E12T: 0.367
D11S: 0.174
E12D: 0.643
H8Q: 0.44
R5K: 0.107
L7Y: -0.0195

Sample 2
Target: RNA binding protein fox-1 homolog 2, RRM domain, GST-SBP tag (RBFOX2, Homo sapiens, UniProt O43251-10, residues 100-194)
Technique: RNA Bind-n-Seq
Form: RNA
Sample: in vitro
Tested at: 365 nM
Setting: natural RNA segment, single round, ends assumed
Reference: no-protein control
Reading: higher = stronger binding
Endpoint: RBNS enrichment (R)
Residues (chain): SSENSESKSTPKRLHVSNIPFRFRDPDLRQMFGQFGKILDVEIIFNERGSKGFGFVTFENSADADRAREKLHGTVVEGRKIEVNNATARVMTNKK
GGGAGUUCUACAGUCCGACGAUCAAAGCACAGCAGCAGUCGCUUCUGGGGAGUGCCAGUUAAAGUCAUGCAUCAGACCCUGCCAGACGUGGGCCUGCUUCUUGGCUCACCCACGUUUUGCCUUUCUCCUGCCCUGGAAUUCUCGGGUGCCAA: 0.839
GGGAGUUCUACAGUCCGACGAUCAGUUGAAUGCCGGGGAGAAACCUGUCCAAUUUUAGCAGGUUUGAAGGGAGGAUCUUCUUCAGUUGUAGUUUGGAAGGUUCCUUGGUGUGGCUCAUGAAAUCACAGAGCUCUGGAAUUCUCGGGUGCCAA: 0.354
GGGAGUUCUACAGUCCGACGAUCGCAGUUCAUUUCCAUUAGGCAGACGUAUAAACUAAGGAAUGUUAGUCUGCAGUAUUCAUUUUAAAAAUAUUGACAUGCUUUUCCCCUCCCCUCCAUGAAGUCAGUGCCAGUGGAAUUCUCGGGUGCCAA: 0.674
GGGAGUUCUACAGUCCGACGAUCCCUGACAUGUGUUUAAUAUUCCUCCUGCUUUUACAGAUUCUGACGUUUUCUUGAUAAUUGUAAGCUUGAGAGUGUUUGUGGAAGAACUUACUUUCUUCUUAUGUAUACAUUGGAAUUCUCGGGUGCCAA: 0.491
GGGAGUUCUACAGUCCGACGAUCGAGACCUGGCCCUGCUACGGCCCUGCCACAGCACCACCAUUCCCCAAGGAGGCUCUGCACAGCUCACUUGUGGGGAAGACGGGACAUGCUUCCAGAUUUUCUUUGGGGGUUGGAAUUCUCGGGUGCCAA: 0.276
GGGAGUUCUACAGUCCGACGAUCAUGGAACCAACAAGUUGAGUGCAUCUCUGUUGGGUGUUUUGUGUUGAGACUGGCUGAAGUGAAGAAUCUUUGACUGACCAUGUUGUGAUGUGUCGACAGACUCAAGGACAUGGAAUUCUCGGGUGCCAA: 0.407
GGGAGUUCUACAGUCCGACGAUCAGUUUUAGUACGUAUCUGGCUUGUAUGUGGAAGACUAAAAAGUUGAUUUGCUAAAUGUGGUCUUUGCCAACUAAAAUCUGAGAUGCAGCUUUAGACCCUGACACGUGGAUUGGAAUUCUCGGGUGCCAA: 1.75
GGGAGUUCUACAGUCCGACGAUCCCACUAUUAGGUUUUUUUUCUUUUCCUCUGUGGGGCUAAGACACUUGAUUAAACAGUUUUUCUUGUUGCACAGUCCUAAUUUCAUAAGGUCAAGGAGACACUCAGGCAUUUGGAAUUCUCGGGUGCCAA: 0.683

Sample 3
Target: ABI1, truncated, D143A, DHFR fusion (Arabidopsis thaliana)
Technique: DHFR PCA, deep sequencing
Sample: yeast
Setting: methotrexate growth selection, single substitutions
With: (+)-ABA 1.4 µM
Reference: wild-type fitted maximum
Reading: higher = stronger binding
Endpoint: relative binding score
Starting sequence: PYL1, truncated, DHFR fusion (Arabidopsis thaliana); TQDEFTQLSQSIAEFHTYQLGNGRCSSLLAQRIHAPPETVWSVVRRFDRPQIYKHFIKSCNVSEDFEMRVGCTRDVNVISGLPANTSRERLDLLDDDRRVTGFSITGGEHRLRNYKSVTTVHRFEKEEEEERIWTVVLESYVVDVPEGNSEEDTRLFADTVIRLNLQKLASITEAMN; partner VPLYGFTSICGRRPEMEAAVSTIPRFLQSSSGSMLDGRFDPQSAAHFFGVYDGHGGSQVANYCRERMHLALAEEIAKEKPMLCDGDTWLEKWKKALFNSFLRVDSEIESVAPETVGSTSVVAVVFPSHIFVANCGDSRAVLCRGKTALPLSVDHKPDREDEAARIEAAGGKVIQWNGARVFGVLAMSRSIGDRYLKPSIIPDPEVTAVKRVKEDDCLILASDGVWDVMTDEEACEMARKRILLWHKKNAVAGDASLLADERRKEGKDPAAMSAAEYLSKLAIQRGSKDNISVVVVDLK
H122G: -3.99%
H16G: -0.672%
L94I: 40.6%
H110Y: 10.9%
E147F: 31.9%
N85H: 61.6%
V62P: 1.36%
Y18C: 9.39%
R69P: 1.66%
F47T: -5.05%
L8R: -1.11%

Sample 4
Target: Ras GTPase-activating protein-binding protein 1, C-terminal RGG region (G3BP1, Homo sapiens, UniProt Q13283)
Chain of UniProt Q13283 (whole entry, looked up): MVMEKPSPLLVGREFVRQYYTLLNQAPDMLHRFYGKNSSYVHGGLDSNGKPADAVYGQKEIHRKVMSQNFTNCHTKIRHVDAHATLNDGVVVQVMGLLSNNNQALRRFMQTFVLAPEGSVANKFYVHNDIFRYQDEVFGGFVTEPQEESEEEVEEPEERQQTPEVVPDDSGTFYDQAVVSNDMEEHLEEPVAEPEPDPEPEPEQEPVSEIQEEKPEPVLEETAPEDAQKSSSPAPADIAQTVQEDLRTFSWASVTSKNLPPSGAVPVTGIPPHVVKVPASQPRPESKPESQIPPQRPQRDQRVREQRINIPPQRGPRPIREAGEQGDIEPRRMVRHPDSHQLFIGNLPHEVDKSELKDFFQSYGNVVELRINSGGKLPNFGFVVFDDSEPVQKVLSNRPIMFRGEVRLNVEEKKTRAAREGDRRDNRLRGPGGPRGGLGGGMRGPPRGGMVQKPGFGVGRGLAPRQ
Technique: RNA Bind-n-Seq
Form: RNA
Sample: in vitro
Tested at: 1 µM
Setting: whole 134-nt RNA, ends assumed
With: 150 mM KCl
Reference: input library
Reading: higher = stronger binding
Endpoint: log2 enrichment
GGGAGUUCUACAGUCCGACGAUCCUCAAGUCCUGUGCUACACAUCGUAUGUACCGAAUCGGUGGAAAGGAAAAAGGAAAGUAUUAUGUUACGCCGUUCGGAUCUGCACUUCCAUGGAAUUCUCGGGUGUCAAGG: -1.28
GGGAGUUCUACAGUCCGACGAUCCAAGUCCUGUGCUACACAUCGUAUGUACCGAAUCGGAAAGGGGAAAGGGGAAAGGGAAAGUAUUAUGUUACGCCGUUCGGAUCUGCACUUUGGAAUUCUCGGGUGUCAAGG: -0.16
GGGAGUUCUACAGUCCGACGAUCAAGUCCUGUGCUACACAUCGUAUGUACCGAAUCGGGGCCCCGGGCCCCGGCCCCGGAAAGUAUUAUGUUACGCCGUUCGGAUCUGCACUUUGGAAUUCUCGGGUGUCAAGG: -1.97
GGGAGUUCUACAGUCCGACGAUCUUAGAAGAACCCGAAGAACCUAAAGUGCUAACACCAGAAGAACAAUUAGCAGAUAAACUGCGGCUAAAGAAAUUACAGGAAGAGUCAGACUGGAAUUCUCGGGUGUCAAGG: -0.274
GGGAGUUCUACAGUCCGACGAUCUCCUGUGCUACACAUCGUAUGUACCGAAUCGGGGUUUUUUGGUUUUUUGGGGUUUUUUGGAAAGUAUUAUGUUACGCCGUUCGGAUCUGCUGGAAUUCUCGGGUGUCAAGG: -0.627

Some of these lines once more (sample 4):
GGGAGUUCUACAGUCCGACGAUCAAGUCCUGUGCUACACAUCGUAUGUACCGAAUCGGGGCCCCGGGCCCCGGCCCCGGAAAGUAUUAUGUUACGCCGUUCGGAUCUGCACUUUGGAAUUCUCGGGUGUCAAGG: -1.97
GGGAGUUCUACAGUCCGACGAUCUUAGAAGAACCCGAAGAACCUAAAGUGCUAACACCAGAAGAACAAUUAGCAGAUAAACUGCGGCUAAAGAAAUUACAGGAAGAGUCAGACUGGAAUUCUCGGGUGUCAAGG: -0.274
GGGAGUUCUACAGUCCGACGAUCCAAGUCCUGUGCUACACAUCGUAUGUACCGAAUCGGAAAGGGGAAAGGGGAAAGGGAAAGUAUUAUGUUACGCCGUUCGGAUCUGCACUUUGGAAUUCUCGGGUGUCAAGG: -0.16
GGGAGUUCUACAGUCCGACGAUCCUCAAGUCCUGUGCUACACAUCGUAUGUACCGAAUCGGUGGAAAGGAAAAAGGAAAGUAUUAUGUUACGCCGUUCGGAUCUGCACUUCCAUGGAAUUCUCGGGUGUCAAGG: -1.28
